Experimental data of several laboratories.
Protocols differ between the studies behind these lines. Values joined by “and” are separate records of one study, mostly repeats; a detail may differ. ± gives the spread as reported. Converted amounts (≈) assume the structure as drawn.

COc1cccc(-c2n[nH]c(SCc3ccccn3)n2)c1OC
plasma concentration (Sprague-Dawley rats, both sexes; oral dietary, 10 mg/kg/day, day 90, 12 h): 525 ng/mL

CC(C)c1nc(N(C)S(C)(=O)=O)nc(-c2ccc(F)cc2)c1/C=C/[C@@H](O)C[C@@H](O)CC(=O)O
participants with TEAE (refers to: Dizziness; human; oral, 10 mg): 0%

CC(C)(C(=O)N1CCOc2c(C#N)cncc2C1)C(F)F
subjects with adverse event (refers to: Presyncope; human; oral, 20 mg once daily, 14 days, multiple ascending dose): 12.5%

CC1=C(C(=O)OC(C)C)C(c2cccc([N+](=O)[O-])c2)C(C(=O)OC2CN(C(c3ccccc3)c3ccccc3)C2)=C(N)N1 (stereo not shown)
inhibition (Nedd8-cullin1 interaction; neddylation, AlphaScreen; 100 µM): 103%

CC(F)(F)c1nc2nc(CO)cc(Nc3ccc(S(F)(F)(F)(F)F)cc3)n2n1
half-life, metabolite (LC-MS/MS; malaria patients, plasma; oral, 400 mg of parent drug): 126 h

CCC[C@H]1CC[C@H](c2ccc(C#N)cc2)CC1
median placental accumulation (Sprague-Dawley rat, female, placenta; 5000 ng/mL in perfusate, 50 (unit not given), high dose, mixture of 21 LCMs): 649 ng/g

Cn1cc(Nc2nccc(-c3ccc4c(c3)CN(C3COC3)CC[C@H]4NC(=O)c3cn(C(C)(C)C)nn3)n2)cn1
B cell count change (human, whole blood; 300 mg twice daily, day 7; baseline: pre-dose baseline): 48.7%

C[C@@H](Oc1ccc(S(C)(=O)=O)cc1C(=O)N1C[C@@H]2C[C@]2(c2cc(C(F)(F)F)on2)C1)C(F)(F)F
half-life (elderly humans, plasma; oral, 25 mg once daily, single dose, geometric mean): 57.3 h

CCc1cc(C(=O)NC)c2nccc(N3CCc4c(cc(Cn5ccnc5)cc4-c4cn(C)nc4C(F)(F)F)C3=O)c2c1
body weight change (Sprague Dawley rat; oral, 50 mg/kg once daily, day 2, 7-day toxicology study; baseline: day 1): 2%

CS(=O)(=O)N(CC(=O)Nc1ccccc1C(=O)N1CCOCC1)c1ccc(Cl)cc1
thermodynamic solubility (aqueous buffer; pH 7.4): < 7.14 µM

COc1ccc2c(c1)CN(C(=O)CCN1CCC(Cc3ccccc3)CC1)CC[S@@+]2[O-]
QTc interval (telemetry; conscious male beagle dogs; intravenous, 8 mg/kg, 0.5 h): 242 ± 27 ms

N#Cc1ccc2c(c1)[C@H]1CCCN(C(=O)c3ccc4[nH]cnc4c3)[C@H]1C2
median ACTH level (human; 160 mg, end of trial): 6.6 pmol/L

O=C(NCCN1CCCC1)c1cc(-c2ccc(CN3CCOCC3)cc2)nc2ccc(F)cc12
stability duration (human whole blood; -70 °C, citric acid buffer 100 mM, 1/1 v/v): 376 days

CC(C)NCC(O)COc1ccc(CC(N)=O)cc1 (stereo not shown)
inhibition (Nedd8-cullin1 interaction; neddylation, AlphaScreen; 100 µM): 26.5%

CCOc1c([C@H](C)n2nc(C)c3c(N)ncnc32)cc(Cl)c(F)c1[C@@H]1CNC(=O)C1
ECG observations (refers to: QTcF ≤450 ms; previously treated B-cell malignancy; oral, 45 mg once daily, overall population): 100%

COC(=O)c1ccccc1-c1c2ccc(=N)cc-2oc2c1ccc1cccc(O)c12.Cl
molar extinction coefficient (12.5 mM aqueous NaOH; pH 12.1, 10% DMSO): 15600 M⁻¹ cm⁻¹

OC[C@H]1O[C@@H](c2ccc(Cl)c(Cc3ccc(O[C@H]4CCOC4)cc3)c2)[C@H](O)[C@@H](O)[C@@H]1O
change in Sodium (Japanese type 1 diabetes patients, blood; 10 mg, day 28; baseline: baseline): 1 mEq/L

CCN1CCN(Cc2ccc(NC(=O)c3ccc(C)c(NC(=O)c4cncc(-c5cccs5)c4)c3)cc2C(F)(F)F)CC1
extrapolated AUC share (C57BL/6 mice, epithelial lining fluid; intraperitoneal, 15 mg/kg): 5.3%

O=C(O)c1cccc(C(=O)O)c1
apparent dissolution enthalpy (betaine/glycerol DES-water; DES mass fraction 0.70): 3.5 kcal/mol

O=C(O)CCC(=O)O.[2H]C([2H])([2H])Oc1cc(C)c2[nH]ccc2c1CN1CC[C@@H](C2CC2)C[C@H]1c1ccc(C(=O)O)cc1
subjects with TEAE Acne (multiple ascending dose; healthy Chinese subjects; 200 mg once daily): 0%

Cc1cccc(CNC(=O)c2cn(CCNC(=O)c3ccccc3Sc3c([N+](=O)[O-])ncn3C)c3cc4c(cc3c2=O)OC(F)(F)O4)n1
AUC(0-inf) (Sprague-Dawley rat, male, whole blood; intravenous, 5 mg/kg of parent compound): 72 ± 6.69 ng·h/mL

C[C@@]1(c2cc(NC(=O)c3ccc(C#N)cn3)ccc2F)C=CSC(N)=N1
dose-normalised AUC(0-last) (elderly humans, both sexes, plasma; oral, 90 mg single dose): 97.8 ng·h/mL

Cc1cc(Nc2cc3ncccc3c(N[C@@H]3C[C@H]4CC[C@@H](C3)N4CCC#N)n2)n[nH]1
AUC(0-4) (human, plasma; 20 mg, day 1, geometric mean): 0.603 ng·h/mL

C[C@@H](Nc1cc(F)cc(F)c1)c1cc(C(=O)N(C)C)cc2c(=O)cc(N3CCOCC3)oc12
Cmax geometric mean (human, plasma; oral, 60 mg, day 1 single dose): 338 ng/mL

Oc1ccc(/C=C/c2cc(O)cc(O)c2)cc1
lactate dehydrogenase (rat, azoxymethane-injected, blood at sacrifice; 10 mg/kg): 1140 IU/L and 1490 IU/L and 942 IU/L

Cc1cc(NC2CCN(C(=O)OC3CCN(C(=O)/C=C/CN(C)C)C3)CC2)n2ncc(C(C)C)c2n1 (stereo not shown)
patients with Flatulence (patients with advanced solid tumours; dose not given, QD arm, grade 3 or higher): 0%

CCCC1CCC(c2ccc(OCC)c(F)c2F)CC1 (stereo not shown)
median fetal accumulation (rat, fetus; 10 ng/mL in perfusate, low dose, mixture of 21 LCMs): 0.165 ng/g

CCN1CCN(Cc2ccc(Nc3ncc(F)c(-c4cc(F)c5nc6n(c5c4)[C@H](C)CCC6)n3)nc2)CC1
CL/F (human, plasma; 300 mg single dose, mean): 32 L/h

Cc1cc(-c2nccc3c2ccn3CC(=O)Nc2ccc(-c3cnccn3)cn2)ccn1
subjects with contact dermatitis (human; 5 mg once daily, multiple ascending dose): 0%

C=C1C(=O)O[C@H]2[C@H]1CC/C(CO)=C\CC[C@@]1(C)O[C@@H]21
time to appearance in blood (BALB/c mice male, blood; oral, 757 µmol/kg): ≤ 15 min

CNC(=O)c1ccc(-c2cnc3ncc(Cc4ccc5ncccc5c4)n3n2)cc1F
back pain incidence (cancer patients; oral, dose not given, all grades dose escalation): 3%

COc1cccc(OC)c1-c1cc(C(=O)NC2(C(=O)O)C3CC4CC(C3)CC2C4)nn1-c1ccc(C(=O)N(C)CCCN(C)CCCN(C)C(=O)CN2CCN(CC(=O)[O-])CCN(CC(=O)[O-])CCN(CC(=O)[O-])CC2)cc1C(C)C.[177Lu+3] (stereo not shown)
tumour-to-muscle ratio (mouse, HT-29 xenograft; 72 h post injection, biodistribution; baseline: tumour over muscle uptake): 76.4

CNCc1ccc(-c2[nH]c3cc(F)cc4c3c2CCNC4=O)cc1
nausea incidence (human patients; oral, 480 mg twice daily, all grades): 44.4%

N#Cc1ccccc1-c1nc(N2CCC(c3ccccn3)C2)c2ccccc2n1 (stereo not shown)
kinetic solubility (Japanese Pharmacopoeia disintegration test solution 2; pH 6.8): 1 µg/mL (≈ 2.65 µM)

CNC(=O)c1ccc(-c2cnc3ncc(Cc4ccc5ncccc5c4)n3n2)cc1F
AUC(0-t) (human mild hepatic impairment; oral, 200 mg single dose, covariate-adjusted geometric mean): 5680 ng·h/mL

CCN1/C(=C/C(C)=O)Sc2ccc(F)cc21
diastolic blood pressure (cynomolgus monkey; oral, 30 mg/kg, 1 h post-dose): 74 ± 5 mmHg

COc1c(C)c2c(c(O[C@@H]3O[C@H](C(=O)O)[C@@H](O)[C@H](O)[C@H]3O)c1C/C=C(\C)CCC(=O)O)C(=O)OC2
half-life, mean (healthy subjects, plasma; oral, 1 g mycophenolate mofetil, with: isavuconazole): 21.5 h

C[C@H]1CN(C(=O)CC#N)[C@]12CCN(c1ncnc3[nH]ccc13)C2
half-life, median or range (healthy adults, plasma; oral, 3 mg single dose): 2.2 h

O=C(Nc1nc2cccc(-c3ccc(CN4CCS(=O)(=O)CC4)cc3)n2n1)C1CC1
treatment-emergent adverse events (refers to: gastrointestinal disorders; human rheumatoid arthritis patients; oral, 200 mg once daily, 4 weeks, regardless of relatedness): 25%

Cn1cc(Nc2nc(N)nc(-c3cccc(-n4ccc5cc(C6CC6)cc(F)c5c4=O)c3CO)n2)cn1
nausea incidence (healthy humans, fed; oral tablet, 50 mg twice daily (multiple dose), 14 (unit not given); baseline: subjects): 0%

O=C(NO)[C@H]1CSC(c2ccc(OC(F)(F)F)c(Cl)c2)=N1
thermodynamic solubility (aqueous buffer; pH 7.4): < 10.7 µM

CN1C(=O)[C@@H](NC(=O)c2nnc(Cc3ccccc3)[nH]2)COc2cccnc21
medical device site reaction incidence (phase I multiple ascending dose; human, male and female; oral, 200 mg, 14 days): 0%

Cc1nc2cccc(OCC(C)(C)C(=O)NC(C)C)c2c(N)c1C(=O)O
AUClast ratio (Sprague-Dawley rat, female, plasma; oral, 30 mg/kg, day 7 over day 1, 7-day repeated dosing; baseline: day 7 over day 1): 1.12 ± 0.26

Some of these lines once more:
CCN1CCN(Cc2ccc(NC(=O)c3ccc(C)c(NC(=O)c4cncc(-c5cccs5)c4)c3)cc2C(F)(F)F)CC1
extrapolated AUC share (C57BL/6 mice, epithelial lining fluid; intraperitoneal, 15 mg/kg): 5.3%

O=C(O)c1cccc(C(=O)O)c1
apparent dissolution enthalpy (betaine/glycerol DES-water; DES mass fraction 0.70): 3.5 kcal/mol

O=C(O)CCC(=O)O.[2H]C([2H])([2H])Oc1cc(C)c2[nH]ccc2c1CN1CC[C@@H](C2CC2)C[C@H]1c1ccc(C(=O)O)cc1
subjects with TEAE Acne (multiple ascending dose; healthy Chinese subjects; 200 mg once daily): 0%

Cc1cccc(CNC(=O)c2cn(CCNC(=O)c3ccccc3Sc3c([N+](=O)[O-])ncn3C)c3cc4c(cc3c2=O)OC(F)(F)O4)n1
AUC(0-inf) (Sprague-Dawley rat, male, whole blood; intravenous, 5 mg/kg of parent compound): 72 ± 6.69 ng·h/mL

C[C@@]1(c2cc(NC(=O)c3ccc(C#N)cn3)ccc2F)C=CSC(N)=N1
dose-normalised AUC(0-last) (elderly humans, both sexes, plasma; oral, 90 mg single dose): 97.8 ng·h/mL

Cc1cc(Nc2cc3ncccc3c(N[C@@H]3C[C@H]4CC[C@@H](C3)N4CCC#N)n2)n[nH]1
AUC(0-4) (human, plasma; 20 mg, day 1, geometric mean): 0.603 ng·h/mL
